Results from different studies.
Lines come from different studies, so protocols differ. Values joined by “and” are separate records of one study, mostly repeats; a detail may differ. Numbers after ± are the reported error.
KDR: Vascular endothelial growth factor receptor 2 (KDR, Homo sapiens, UniProt P35968)
CTSL: Procathepsin L (CTSL, Homo sapiens, UniProt P07711)
PDGFRB: Platelet-derived growth factor receptor beta (PDGFRB, Homo sapiens, UniProt P09619)
ALDH1A1: Aldehyde dehydrogenase 1A1 (ALDH1A1, Homo sapiens, UniProt P00352)
Nucleoside transporter 1: Nucleoside transporter 1 (Plasmodium vivax, UniProt A5K8B0)
KCNN4: Intermediate conductance calcium-activated potassium channel protein 4 (KCNN4, Homo sapiens, UniProt O15554)

COc1cc2nccc(Oc3ccc(NC(=S)NCc4ccccn4)c(Cl)c3)c2cc1C(N)=O
IC50 (KDR): 0.373 µM

CC(C)=CCC1CC(=O)CC(C(C)(C)O)OC(=O)C23C(=C(C)C)OC(C)(C)C2CCC13C (stereo not drawn)
IC50 (Beta-secretase 1 (Mus musculus, UniProt P56818); enzyme activity in cells, inhibitor): 0.136 µM

COc1cnc(COc2ccc(F)c(F)c2)cc1-c1cc2c([nH]1)CCNC2=O
IC50 (Casein kinase I isoform gamma-3 (CSNK1G3, Homo sapiens, UniProt Q9Y6M4); target engagement in cells, BRET): 0.01 µM

CC(C)CCN(c1nc(C#N)nc(NC2COC2)n1)C(C)c1ccc(F)cc1 (stereo not drawn)
IC50 (CTSL; enzyme activity, inhibitor, fluorescence): 0.023 µM

Cc1c(C(=O)NNC(=S)Nc2ccc(Cl)cc2)nnn1Cc1nc2ccccc2[nH]1
IC50 (DNA topoisomerase II; inhibitor): 2.52 ± 0.15 µM

O=C1CC(c2ccccc2)N1S(=O)(=O)c1cccc(Br)c1 (stereo not drawn)
IC50 (Rhomboid protease AarA (Providencia stuartii, UniProt P46116); enzyme activity, inhibitor, fluorescence): < 20 µM

CC1(C)C2CC3C(c4ccccc4)c4c(O)c(C=O)c(O)c(C=O)c4OC3(C)C1C2 (single isomer, unassigned; (+))
IC50 (ATP-dependent 6-phosphofructokinase, liver type (PFKL, Homo sapiens, UniProt P17858, K677R/K681R); enzyme activity, inhibitor, coupled enzyme; double mutant): > 100 µM

C=CCNC(=O)[C@H](CCc1ccccc1)NC(=O)[C@H](CC(=O)NCC(C)(C)C)NC(=O)CCc1ccccc1
IC50 (PSMB6/PSMB7 (Homo sapiens, UniProt P28072+Q99436); inhibitor): 64 µM

OCc1cccc(S[C@@H]2O[C@H](CO)[C@@H](O)[C@H](O)[C@H]2O)c1
IC50 (Sodium/glucose cotransporter 1 (SLC5A1, Homo sapiens, UniProt P13866); transporter uptake, inhibitor, radiometric): 12 µM

O=Cc1c(O)cc(S(=O)(=O)O)cc1S(=O)(=O)O
IC50 (alanine aminotransferase, pig heart; inhibitor, 1H NMR H/D exchange; added: L-alanine): ~15 µM

COc1cc2nccc(Oc3ccc(NC(=S)Nc4ccccc4F)c(Cl)c3)c2cc1C(N)=O
IC50 (PDGFRB): 0.0373 µM

N#Cc1nc(N2CCOCC2)nc(N(Cc2ccc(F)cc2)CC2CCNCC2)n1
IC50 (CTSL; enzyme activity, inhibitor, fluorescence): 0.96 µM

C=CC1C(OC2OC(CO)C(O)C(O)C2O)OC=C(C(=O)OC)C1CC1CC(=O)CC(CC(=O)CCc2ccc(O)cc2)O1 (stereo not drawn)
IC50 (Alpha-glucosidase MAL12 (MAL12, Saccharomyces cerevisiae S288c, UniProt P53341); enzyme activity, inhibitor, absorbance): > 100 µM

CC(C)NC1CCN(S(=O)(=O)Nc2ccc(F)c(F)c2Nc2ccc(I)cc2Cl)CC1
IC50 (Dual specificity mitogen-activated protein kinase kinase 2 (MAP2K2, Homo sapiens, UniProt P36507); enzyme activity, inhibitor): 0.056 µM

COCCn1cc2c(n1)CN(C(=O)Nc1nc(-c3ccc(F)cc3F)ccc1N)C2
IC50 (Histone deacetylase 5 (HDAC5, Homo sapiens, UniProt Q9UQL6); deacetylase activity, inhibitor, recombinant enzyme): > 30 µM

COc1cc2nccc(Oc3ccc(NC(=S)NCc4ccccc4)c(Cl)c3)c2cc1C(N)=O
IC50 (KDR): 0.676 µM

CCC1(CC)C(=O)N(c2cccc(CN3CCN(Cc4ccc(Br)cc4)CC3)c2)C1=O
IC50 (Dipeptidyl peptidase 8 (Homo sapiens, UniProt Q6V1X1); cell-free assay, inhibitor): 0.137 µM

CC[C@H](C)[C@H](NC(=O)[C@H](CC(C)C)NC(=O)[C@H](C)NC(=O)c1ccc(CN2CCNCC2)cc1)C(=O)N[C@@H](Cc1ccccc1)C(N)=O
IC50 (Cyclin-A2, with CDK2 (CCNA2, Homo sapiens, UniProt P20248); binding to cyclin groove, inhibitor, fluorescence polarization competition): > 100 µM

CC(C)CCCN(Cc1ccc(F)cc1)c1nc(C#N)nc(N2CCOCC2)n1
IC50 (CTSL; enzyme activity, inhibitor, fluorescence): 0.328 µM

C[C@@]12CC[C@@H]3c4cc(Cl)c(O)cc4CC[C@H]3[C@@H]1CCC2=O
IC50 (Aldo-keto reductase family 1 member C3 (AKR1C3, Homo sapiens, UniProt P42330); enzyme activity, inhibitor, absorbance; pH 9): 8.7 µM

CNC(=O)c1ccc(Oc2nc3c(c(=O)n(C)c(=O)n3C)n2CCC(C)C)cc1
IC50 (ALDH1A1): 0.057 to 0.089 µM and 0.089 µM

CC(C)CCN(Cc1cccnc1)c1nc(C#N)nc(N2CCOCC2)n1
IC50 (CTSL; enzyme activity, inhibitor, fluorescence): 0.027 µM

O=C(Nc1ccc(Cl)c(-c2nc3ncccc3o2)c1)c1cccs1
IC50 (Nucleoside transporter 1; yeast growth; purine auxotrophic yeast expressing target; 15 to 17 h, added: adenosine 1 mM): 0.234 ± 0.041 µM

COc1cc2nccc(Oc3ccc(NC(=S)NC4CC4)c(Cl)c3)c2cc1C(=O)NC1CC1
IC50 (PDGFRB): 0.21 µM

CC(=O)NC(c1ccccc1)(c1ccccc1)c1ccccc1Cl
IC50 (KCNN4; ion current, inhibitor, patch clamp): 1.2 µM

COc1cc2ncnc(Oc3ccc(Nc4nccc5[nH]cc(-c6cccc(F)c6)c(=O)c45)cc3F)c2cc1OC
IC50 (Hepatocyte growth factor receptor (MET, Homo sapiens, UniProt P08581); kinase activity, inhibitor, HTRF): 0.0676 µM

CNC(=O)c1ccccc1Oc1nc(Nc2cc(OC)c(OC)c(OC)c2)ncc1Br
IC50 (Mitogen-activated protein kinase kinase kinase 9 (MAP3K9, Homo sapiens, UniProt P80192); enzyme activity, inhibitor): 0.071 µM

COC(=O)c1cc2c(Oc3ccc(NC(=S)NC4CC4)c(Cl)c3)ccnc2cc1OC
IC50 (PDGFRB): 0.0725 µM

OC(c1ccccc1)(c1cccs1)c1ccccc1Cl (stereo not drawn)
IC50 (KCNN4; ion current, inhibitor, patch clamp): 0.75 µM

CCCCc1ccc(C(=O)N[C@@H](CO)C(=O)N[C@H](C(=O)N2CCC[C@H]2C(=O)N[C@@H](CC(N)=O)C(=O)NCC(=O)N[C@@H](CC(C)C)C(=O)O)[C@@H](C)OP(=O)(O)O)cc1
IC50 (Serine/threonine-protein kinase PLK3, polo-box domain (PLK3, Homo sapiens, UniProt Q9H4B4); polo-box domain binding, fluorescence polarization): > 600 µM

O=C(O[C@H](CO)C(F)(F)F)N1C[C@@H]2[C@H](C1)[C@H]2c1ccn(-c2cc(F)ccn2)n1
IC50 (Monoglyceride lipase (Mgll, Mus musculus, UniProt O35678); enzyme activity, ABPP with FP-rhodamine; mouse brain lysate; 30 min preincubation, 37 °C): 0.0075 µM

O=c1[nH]c(=S)[nH]c2c1C(c1cc(/N=N/c3cc(Cl)cc(Cl)c3)ccc1O)c1c([nH]c(=S)[nH]c1=O)N2
IC50 (Prostaglandin G/H synthase 2 (PTGS2, Ovis aries, UniProt P79208); enzyme activity, inhibitor, ELISA): 2.11 µM

COc1cc2nccc(Oc3ccc(NC(=S)NC4CC4)c(Cl)c3)c2cc1C(=O)NO
IC50 (KDR): 0.0201 µM

OC[C@H]1[C@@H](O)[C@@H](O)CN1CCc1ccccc1
IC50 (Lysosomal alpha-mannosidase (Drosophila melanogaster, UniProt Q9VKV1); pH 5.2, added: 2 mM pNP-Man): 1200 µM

COc1cc2nccc(Oc3ccc(NC(=S)NC(C)(C)C(F)(F)F)c(Cl)c3)c2cc1C(N)=O
IC50 (KDR): 0.234 µM

O=C1C2=C(Nc3ccccc3SC2c2ccc(O)c(O)c2)c2ccccc21 (racemic)
IC50 (Type II NADH dehydrogenase (Plasmodium falciparum, UniProt Q8I302); enzyme activity, inhibitor, fluorescence NAD+ quantitation; recombinant enzyme): > 20 µM

CSCC[C@H](NC(=O)[C@H](CC(C)C)NC(=O)[C@H](Cc1cnc[nH]1)NC(=O)CNC(=O)[C@@H](NC(=O)[C@H](C)NC(=O)[C@H](Cc1c[nH]c2ccccc12)NC(=O)[C@H](Cc1cnc[nH]1)NC(=O)[C@H](CC(N)=O)NC(=O)CN)C(C)C)C(N)=O
IC50 (Neuromedin-B receptor (NMBR, Homo sapiens, UniProt P28336); NMBR activity, cell-based): 0.037 to 0.075 µM

O=C(Nc1ccc(-c2nc3ncccc3o2)cc1)c1ccccc1Br
IC50 (Nucleoside transporter 1; yeast growth; purine auxotrophic yeast expressing target; 15 to 17 h, added: adenosine 1 mM): 0.703 ± 0.178 µM

Cn1c(=O)c2c(nc(OC3CCN(C(=O)C4CC4)CC3)n2Cc2ccccc2F)n(C)c1=O
IC50 (ALDH1A1): 0.153 ± 0.049 µM

COc1cc2nccc(Oc3ccc(NC(=S)NCc4ccc(F)cc4)c(Cl)c3)c2cc1C(N)=O
IC50 (KDR): 0.207 µM

O=c1c2ccccc2on1-c1ccccc1
IC50 (Polyamine deacetylase HDAC10 (HDAC10, Homo sapiens, UniProt Q969S8); enzyme activity, inhibitor): > 10 µM

CC(C)c1ccc(CN2CCN(CC(=O)c3ccc4[nH]c(=O)[nH]c4c3)CC2)cc1
IC50 (DNA dC->dU-editing enzyme APOBEC-3A (Homo sapiens, UniProt P31941); deaminase activity, inhibitor, alkaline cleavage; 293T lysate, untagged): 9 µM

For quick reference, copied from above:
COc1cc2nccc(Oc3ccc(NC(=S)NCc4ccccc4)c(Cl)c3)c2cc1C(N)=O
IC50 (KDR): 0.676 µM

Cn1c(=O)c2c(nc(OC3CCN(C(=O)C4CC4)CC3)n2Cc2ccccc2F)n(C)c1=O
IC50 (ALDH1A1): 0.153 ± 0.049 µM

OC(c1ccccc1)(c1cccs1)c1ccccc1Cl (stereo not drawn)
IC50 (KCNN4; ion current, inhibitor, patch clamp): 0.75 µM

COc1cc2nccc(Oc3ccc(NC(=S)NC(C)(C)C(F)(F)F)c(Cl)c3)c2cc1C(N)=O
IC50 (KDR): 0.234 µM
